Assay results pooled from the literature.
Compare with care: the assays were run in different laboratories. Several values in a cell are separate wells, animals, samples, runs or records. ± gives the spread as reported. ≈ marks a conversion by molar mass, not a printed value.
UniProt P18054, sequence (whole entry, looked up): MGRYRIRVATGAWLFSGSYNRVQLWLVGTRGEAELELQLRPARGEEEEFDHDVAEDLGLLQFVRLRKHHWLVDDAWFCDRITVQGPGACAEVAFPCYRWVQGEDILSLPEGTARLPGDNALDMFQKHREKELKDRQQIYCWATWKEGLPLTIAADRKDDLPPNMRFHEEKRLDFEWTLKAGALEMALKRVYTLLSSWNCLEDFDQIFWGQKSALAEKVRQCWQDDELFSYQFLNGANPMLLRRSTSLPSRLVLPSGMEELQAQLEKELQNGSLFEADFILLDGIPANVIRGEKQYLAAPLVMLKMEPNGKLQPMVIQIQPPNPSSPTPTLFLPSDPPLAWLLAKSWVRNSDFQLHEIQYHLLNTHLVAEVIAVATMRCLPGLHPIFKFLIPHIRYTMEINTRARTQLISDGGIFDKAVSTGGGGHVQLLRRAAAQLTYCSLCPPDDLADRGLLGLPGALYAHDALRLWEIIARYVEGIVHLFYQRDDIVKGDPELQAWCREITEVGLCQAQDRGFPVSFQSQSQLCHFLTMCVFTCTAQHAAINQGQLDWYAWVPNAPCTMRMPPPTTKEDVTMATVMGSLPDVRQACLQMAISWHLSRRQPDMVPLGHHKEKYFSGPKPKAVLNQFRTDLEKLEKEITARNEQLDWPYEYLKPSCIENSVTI

SMILES	tested on	assay	system	setting	how to read	endpoint	value
CCCCCC1=C(NCC)C(=O)C(C/C=C(\C)CCC=C(C)C)=C(O)C1=O	–	RNA-seq, measured: Irf9 regulon	mouse, striatum	dose not given	direction not given	normalised enrichment score	2.42
COC(=O)C1CN1S(=O)(=O)c1ccc(C)cc1 (stereo not shown)	–	–	mouse Lewis lung carcinoma	intraperitoneal, 100 mg/kg, day 15	–	tumour growth inhibition	49%
CC[C@H](C)[C@H](NC(=O)[C@H](CCCNC(=N)N)NC(=O)[C@H](CO)NC(=O)[C@H](Cc1ccc(O)cc1)NC(=O)[C@@H](NC(=O)[C@@H](NC(=O)[C@H](C)NC(=O)CNC(=O)[C@H](CCCCN)NC(=O)[C@H](CCCCN)NC(=O)CCNC(=O)CCCCCNC(=O)[C@H](CCCNC(=N)N)NC(=O)CCCCCNC(=O)[C@H](CCCNC(=N)N)NC(=O)[C@H](CCCNC(=N)N)NC(=O)CCCCCNC(=O)[C@H](CCCNC(=N)N)NC(=O)[C@H](CCCNC(=N)N)NC(=O)CCCCCNC(=O)[C@H](CCCNC(=N)N)NC(=O)[C@H](CCCNC(=N)N)NC(=O)CCCCCNC(=O)[C@@H](N)CCCNC(=N)N)C(C)C)[C@@H](C)O)C(=O)N[C@@H](CO)C(=O)NCC(=O)N[C@@H](CCC(N)=O)C(=O)N[C@@H](Cc1ccc(O)cc1)C(=O)N[C@@H](CCCCN)C(=O)O	–	broth microdilution	29213, Mueller-Hinton broth	16 to 18 h, 37 °C	–	MIC	24 µM (≈ 85.7 µg/mL)
COc1ccc(S(=O)(=O)O)cc1N=Nc1c(S(=O)(=O)O)cc2cc(NCc3nc(CNc4cc(C)c(N=Nc5cc(S(=O)(=O)O)cc6cc(S(=O)(=O)O)cc(O)c56)cc4OC)nc(Nc4ccccc4)n3)ccc2c1O	–	virus neutralisation	pseudovirus SF162-W32A	–	relative to: SF162 wild type	IC50 ratio	0.79 ± 0.29
CCCC[C@@H]1NC(=O)[C@H](Cc2ccc(O)cc2)NC(=O)[C@@H]2CCCN2C(=O)[C@H](CC(=O)O)NC(=O)[C@H](C)NC(=O)[C@H](Cc2ccccc2)NC(=O)[C@@H]2CSCCC(=O)N3CN(CN(C3)C(=O)CCSC[C@@H](C(=O)N[C@@H](C)C(N)=O)NC1=O)C(=O)CCSC[C@H](NC(C)=O)C(=O)N[C@@H](CC(C)(C)C)C(=O)N1CCC[C@H]1C(=O)N[C@@H](CCC(=O)O)C(=O)N[C@H](CCCCNC(=O)CCc1cn(CCOCCOCCOCCN(CCOCCOCCOCCC(=O)N[C@H]3CSCCC(=O)N4CN5CN(C4)C(=O)CCSC[C@H](NC(=O)[C@@H](CC(=O)O)NC(=O)[C@H](Cc4cccc6ccccc46)NC(=O)[C@@H]4CCCN4C3=O)C(=O)N[C@@H](CCSC)C(=O)N[C@@H](CCCCNC(=N)N)C(=O)N[C@@H](CC(=O)O)C(=O)N[C@@H](Cc3c[nH]c4ccccc34)C(=O)N[C@@H](CO)C(=O)N[C@@H]([C@@H](C)O)C(=O)N3CCC[C@H]3C(=O)N3C[C@H](O)C[C@H]3C(=O)N[C@@H](Cc3c[nH]c4ccccc34)C(=O)N[C@H](C(N)=O)CSCCC5=O)CCOCCOCCOCCn3cc(CCC(=O)NCCCC[C@H]4NC(=O)[C@H](CCC(=O)O)NC(=O)[C@@H]5CCCN5C(=O)[C@H](CC(C)(C)C)NC(=O)[C@@H](NC(C)=O)CSCCC(=O)N5CN6CN(C5)C(=O)CCSC[C@H](NC(=O)[C@H](Cc5ccc(O)cc5)NC(=O)[C@@H]5CCCN5C4=O)C(=O)N[C@@H](Cc4ccccc4)C(=O)N[C@@H](C)C(=O)N[C@@H](CC(=O)O)C(=O)N4CCC[C@H]4C(=O)N[C@@H](Cc4ccc(O)cc4)C(=O)N[C@@H](CCCC)C(=O)N[C@H](C(=O)N[C@@H](C)C(N)=O)CSCCC6=O)nn3)nn1)C(=O)N1CCC[C@H]1C(=O)N[C@@H](Cc1ccc(O)cc1)C(=O)N2	–	NanoString, measured: Clec4n-mRNA	mouse bearing MC38-Nectin-4 tumour, circulating white blood cells	5 mg/kg, 24 h after dosing, unit not given	relative to: vehicle	mRNA level	5.91
CS(C)(=O)=Nc1ccc(-c2ccc(-c3nc4cc(O[C@@H]5CO[C@H]6[C@@H]5OC[C@H]6O)[nH]c4cc3F)cc2)cc1	Polyunsaturated fatty acid lipoxygenase ALOX12 (ALOX12, Homo sapiens, UniProt P18054)	enzyme activity, inhibitor	–	10 µM	–	inhibition	-29%
Cc1cc(C(=O)Nc2nc3cccc(C)c3n2[C@H]2CCCCN(C(=O)/C=C/CN(C)C)C2)ccn1	Trypanosoma brucei	cell growth, Alamar Blue	2T1 overexpressing Tb927.9.14430	–	relative to: parental 2T1	EC50 fold shift	0.65 fold and 0.97 fold
O=C1NC(=O)c2c1c1cc(F)c[n+]3c1c1c2c2cc(O)ccc2[n]1[Ru-4]312([N]=C=S)[S+]3CC[S+]1CC[S+]2CC3 (stereo not shown)	Tyrosine-protein kinase ABL1 (ABL1, Homo sapiens, UniProt P00519, H396P)	enzyme activity	–	100 nM, human enzyme, added: 10 µM ATP	relative to: untreated	remaining activity	96%
Cc1cc(O)cc(C)c1C[C@H](N)C(=O)N[C@H](CCCNC(=N)N)C(=O)N[C@@H](Cc1ccccc1)C(=O)N[C@@H](CCCCN)C(=O)NCCNC(=O)[C@@H]1Cc2ccccc2CN1C(=O)[C@@H](N)Cc1c(C)cc(O)cc1C	–	agonist	guinea pig ileum	–	–	IC50	0.284 ± 0.032 µM
CC(C)[C@H]1NC(=O)C[C@H]2/C=C/CCSSC[C@@H](NC1=O)C(=O)N[C@H](Cc1cccc3ccccc13)C(=O)NCC(=O)O2	Hepatocyte growth factor receptor (MET, Homo sapiens, UniProt P08581, Y1235D)	enzyme activity, inhibitor	–	10 µM	–	inhibition	-2.2%
Cc1cc(Oc2nc(N3CC[C@@H](c4ccncc4)C3)ncc2F)[nH]n1	Mycobacterium tuberculosis	–	THP-1, H37Rv non-replicating	0.3001 µM, day 4 plus 1	–	normalised growth	34.7% and 35.5%
CC[C@H](C)[C@H](N)C(=O)N[C@@H](CO)C(=O)N[C@@H](Cc1ccc(O)cc1)C(=O)NCC(=O)NCC(=O)N[C@@H](C)C(=O)N[C@@H](CC(=O)O)C(=O)N[C@@H](Cc1ccc(O)cc1)C(=O)N[C@@H](CCCCN)C(=O)O	–	formalin pain, second phase	mouse	intrathecal, 5 min before formalin, added: formalin 5%	–	ED50	0.63 nmol
COc1ccccc1-c1n[nH]c2nc(NC3CCN(C(=O)Cc4ccc(F)cc4F)CC3)ncc12	–	bead binding, competition bead pull-down, measured: LINJ.33.1660	Leishmania donovani axenic amastigote extract	10 µM	relative to: vehicle	relative abundance	1.04
CSCC[C@H](NC(=O)[C@H](Cc1ccccc1)NC(=O)CNC(=O)CNC(=O)[C@@H](N)Cc1ccc(O)cc1)C(=O)O	–	[3H]deltorphin II uptake, inhibitor	rabbit, cells	15 min, NaCl-containing medium	–	IC50	12.9 ± 3.5 µM
CCN(Cc1ccccc1)C(=O)CCc1nc(CN2CCN(C(=O)Cc3ccc(OC)c(OC)c3)CC2)no1	–	beam walking test	mouse, CCI neuropathic pain model	20 mg/kg	–	beam crossing time	6.58 ± 0.526 s
O=C(O)c1ccc(-c2nc(-c3ccccc3Cl)c3sccn23)cc1	–	–	C57BL/6 mice	dose not given, days 26 and 27 pooled, basal hematopoiesis	–	platelet count change	137% and 104% and 112% and 134% and 84.8% and 96.1%
Cc1ccc(C2=CC(C)(C)Oc3ccc(-c4ccc(-c5ccc(C(=O)O)cc5)[nH]4)cc32)cc1	–	–	CD-1 mouse, male, testis	20 mg/kg/day, 2 weeks, one day after dosing end	–	tubules with abnormal round spermatids	37% and 60.4%
COC(=O)[C@@H](NC(=O)c1nn(Cc2ccc(F)cc2)c2cc(OCCCCNC(=N)N)ccc12)C(C)(C)C	–	–	mouse chronic NTG headache model	intraperitoneal, 1 mg/kg, post-treatment	–	cephalic allodynia	decreased
O=C1NC2(CC2)COc2ncc(F)cc2[C@H]2COCCN2c2ccn3ncc1c3n2	–	–	Sprague-Dawley rat, male, heart	oral, 2.5 mg/kg/day, 4 weeks dosing, end of recovery	–	organ-to-brain weight ratio	74.4 ± 5.98%
COc1ccccc1-c1n[nH]c2nc(N[C@H]3CC[C@H](NS(=O)(=O)CC(C)C)CC3)ncc12	–	bead binding, competition bead pull-down, measured: LINJ.22.0530	Leishmania donovani extract	10 µM	relative to: vehicle	relative abundance	0.55
CC[C@H](C)[C@H](NC(=O)[C@H](CC(C)C)NC(=O)[C@H](CC(=O)O)NC(=O)[C@H](CCCNC(=N)N)NC(=O)[C@H](Cc1c[nH]c2ccccc12)NC(=O)[C@@H](N)CC(C)C)C(=O)N[C@@H](CS)C(=O)N[C@@H](CC(C)C)C(=O)N[C@@H](CS)C(=O)N[C@@H](CCCNC(=N)N)C(=O)N[C@@H](CC(N)=O)C(=O)N[C@@H](CCCNC(=N)N)C(=O)N[C@@H](CCCNC(=N)N)C(=O)N[C@@H](CS)C(=O)N[C@@H](CC(N)=O)C(=O)N[C@@H](CCCNC(=N)N)C(=O)NCC(=O)N[C@@H](CCC(N)=O)C(=O)N[C@@H](CC(C)C)C(=O)N[C@@H](Cc1ccccc1)C(=O)N1CCC[C@H]1C(=O)NCC(=O)N[C@@H](Cc1c[nH]c2ccccc12)C(=O)N[C@@H](CS)C(=O)N1CCC[C@H]1C(=O)NCC(=O)N[C@@H](Cc1c[nH]c2ccccc12)C(=O)N[C@@H](Cc1c[nH]c2ccccc12)C(=O)N[C@@H](CC(C)C)C(=O)N[C@@H](CCCNC(=N)N)C(=O)N[C@@H](CS)C(=O)N[C@@H](CS)C(=O)N[C@@H](CCCNC(=N)N)C(=O)N[C@@H](CCCNC(=N)N)C(N)=O	–	–	C57BL/6J mice, DSS colitis	5 mg/kg, 7 days	relative to: DSS model	colon MPO level	decreased
NCCO.O=C(O)C(Cl)Cl	Chenopodium album	herbicidal activity	–	15 mg/mL, 21 days, pre-emergence greenhouse	–	inhibition	0%

A few entries again:
SMILES	tested on	assay	system	setting	how to read	endpoint	value
COc1ccccc1-c1n[nH]c2nc(NC3CCN(C(=O)Cc4ccc(F)cc4F)CC3)ncc12	–	bead binding, competition bead pull-down, measured: LINJ.33.1660	Leishmania donovani axenic amastigote extract	10 µM	relative to: vehicle	relative abundance	1.04
COc1ccccc1-c1n[nH]c2nc(N[C@H]3CC[C@H](NS(=O)(=O)CC(C)C)CC3)ncc12	–	bead binding, competition bead pull-down, measured: LINJ.22.0530	Leishmania donovani extract	10 µM	relative to: vehicle	relative abundance	0.55
